Measurements collected from several papers.
A part holds a random share of what one study measured.

Sample 1 — method: universal PBM; molecule type: double-stranded DNA, one strand shown; matrix: in vitro; concentration: 600 nM; direction: higher = stronger binding
Target: Sal-like protein 4, full length isoform A (SALL4, Homo sapiens, UniProt Q9UJQ4, residues 1-1053)
UniProt Q9UJQ4, sequence (whole entry, looked up): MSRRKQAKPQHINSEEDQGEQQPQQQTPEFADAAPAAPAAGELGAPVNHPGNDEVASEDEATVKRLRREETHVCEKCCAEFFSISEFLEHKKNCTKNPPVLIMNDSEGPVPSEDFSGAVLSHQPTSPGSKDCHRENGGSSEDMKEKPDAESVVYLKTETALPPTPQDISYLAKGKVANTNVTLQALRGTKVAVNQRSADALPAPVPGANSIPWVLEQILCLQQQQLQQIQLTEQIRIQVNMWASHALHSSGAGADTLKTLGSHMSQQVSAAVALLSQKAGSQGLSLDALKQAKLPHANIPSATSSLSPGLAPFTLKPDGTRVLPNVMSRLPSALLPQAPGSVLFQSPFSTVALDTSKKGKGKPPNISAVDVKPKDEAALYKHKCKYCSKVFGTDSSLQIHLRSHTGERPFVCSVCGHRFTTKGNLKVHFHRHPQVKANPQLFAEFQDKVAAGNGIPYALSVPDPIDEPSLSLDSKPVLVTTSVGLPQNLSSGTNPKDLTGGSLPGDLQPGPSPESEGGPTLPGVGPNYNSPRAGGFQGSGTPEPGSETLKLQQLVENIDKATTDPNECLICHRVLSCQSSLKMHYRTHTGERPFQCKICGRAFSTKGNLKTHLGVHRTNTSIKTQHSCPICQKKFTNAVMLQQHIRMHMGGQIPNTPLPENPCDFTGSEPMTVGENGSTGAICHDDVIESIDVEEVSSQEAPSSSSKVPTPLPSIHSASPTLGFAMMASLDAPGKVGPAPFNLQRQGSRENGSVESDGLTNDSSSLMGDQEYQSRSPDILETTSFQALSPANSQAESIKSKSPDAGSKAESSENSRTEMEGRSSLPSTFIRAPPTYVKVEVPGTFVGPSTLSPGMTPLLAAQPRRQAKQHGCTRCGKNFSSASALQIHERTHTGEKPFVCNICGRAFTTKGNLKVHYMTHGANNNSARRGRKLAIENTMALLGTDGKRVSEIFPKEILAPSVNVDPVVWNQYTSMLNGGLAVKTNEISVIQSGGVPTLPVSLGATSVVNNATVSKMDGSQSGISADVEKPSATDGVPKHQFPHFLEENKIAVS
Notes: 8-mer, flanks averaged, mean of replicates
Oligonucleotide	E-score
CATTCGAC	-0.0249
ACTTATTA	0.397
AGCGGCCT	-0.402
AAGGCCGC	-0.252
AAACACGA	0.143
ACGTAATG	0.243
ACCTGACG	-0.147
CCATTCAA	0.107
AACAGAAA	0.281
GTCTGTGA	-0.0248
CTAAAGAA	0.111
AGCATGAA	0.0972
CCTTCGAC	-0.185
CCGTGTTC	-0.0284
CTGGTAAG	0.011
AGCAGTAG	-0.14
ATGTAGGA	0.0571
ACCACGTG	-0.284
ACGGTGTG	-0.151
AGGCGCTC	-0.326

Sample 2 — method: protein binding microarray; molecule type: double-stranded DNA, one strand shown; matrix: in vitro; concentration: not given; baseline: not given; direction: higher = stronger binding
Target: Histone acetyltransferase KAT6A, winged helix 2, GST fusion (KAT6A, Homo sapiens, UniProt Q92794, residues 85-181)
Notes: 8-mer, flanks averaged, mean of 2 arrays, mostly near background
Construct (chain): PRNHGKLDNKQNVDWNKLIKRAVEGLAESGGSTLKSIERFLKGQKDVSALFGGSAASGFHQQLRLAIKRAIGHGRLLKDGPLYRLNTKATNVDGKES
Oligonucleotide	E-score
CTAAGGAC	-0.0451
ACACTCCC	-0.039
AAGAGCGT	-0.11
CCGAGGGA	0.109
GCACGGAA	-0.0982
GGCCCCAA	0.0509
GCATCACA	0.117
AAGCACCC	0.0977
AGGAAGCC	-0.00081
CCCTTACG	-0.153
AGGGAAGC	-0.175
AAGCCTAG	-0.0023
ATGAAGCA	-0.0468
CCGCGACC	0.294
AGGAATAC	-0.0254
GGCAAGGA	0.0479
CCCAGTCA	-0.074
CACCCCGC	0.194
CCACCCCC	-0.128

Sample 3 — method: protein-binding microarray; molecule type: double-stranded DNA, one strand shown; matrix: in vitro; concentration: 940 nM top; notes: 60-bp whole probe; together with: salmon DNA 0.4 mg/ml; baseline: random background probes; direction: higher = stronger binding; all sequences stand within: GCCTAGCAC … GTCTTGATTCGCTTGACGCTGCTG
Target: Interferon regulatory factor 5, full length, phosphomimetic (IRF5, Homo sapiens, UniProt Q13568-2, residues 1-514, S451D/S453D/S456D/S462D)
Oligonucleotide	fitted relative affinity
CACGGACTGCTTCTCCTGACGTGCTAG	-0.182 z-score
GTATTTGTCCCTATTTAAGAGTGCTAG	1.51 z-score
CTTTACATGAGTTTAGAGCCGTGCTAG	-0.464 z-score
TCAGGGCTACCTCTCTTACTGTGCTAG	-0.589 z-score
ATTGCTTCCTCTTTACTGCTGTGCTAG	1.24 z-score
GACGATTTCGGGTTTCGAGCCGTGCTA	1.91 z-score
TGAGATATCAGACTGGATTAGTGCTAG	-0.514 z-score
GACGAAATCAGACTGGAGACGTGCTAG	-0.294 z-score
GACGGTATCGTGACTGGGGACGTGCTA	0.926 z-score
GACGGTATAGGACTGGGGACGTGCTAG	-0.467 z-score
TCAGGTATAAACTTGGGACTGTGCTAG	-0.413 z-score
GACGCTTCCAGTTTCGAGACGTGCTAG	4.14 z-score
TTAGAACGGAGTATCGATTAGTGCTAG	3.41 z-score
TTAGAACTTAGTCTCGATTAGTGCTAG	3.53 z-score
TTAGTTATCCTACTGCTTTAGTGCTAG	0.448 z-score
AGGCCCTTTGCTTTCCTGATGTGCTAG	0.143 z-score
TTAGATTTCAGTTCCGATTTGTGCTAG	2.18 z-score
GACGGTTTCGACTATCGCGACGTGCTA	8.64 z-score
GACGGTTTCCCTATCCTGACGTGCTAG	2.09 z-score
TTGGGTTTCCTTTCCCTTTAGTGCTAG	1.69 z-score
TTAGGTATCGGGTTACGGTTAGTGCTA	6.83 z-score
GCGCCTTGATGTCTGGGTCTGTGCTAG	-0.351 z-score
GACGGTTTCGGTAGCGGGACGTGCTAG	12.5 z-score
GACGGTCTCTGTATCGGGACGTGCTAG	1.17 z-score

Sample 4 — method: RNA Bind-n-Seq; molecule type: RNA; matrix: in vitro; concentration: 365 nM; baseline: no-protein control; direction: higher = stronger binding
Target: RNA binding protein fox-1 homolog 2, RRM domain, GST-SBP tag (RBFOX2, Homo sapiens, UniProt O43251-10, residues 100-194)
Notes: natural RNA segment, single round, ends assumed
Target sequence (chain): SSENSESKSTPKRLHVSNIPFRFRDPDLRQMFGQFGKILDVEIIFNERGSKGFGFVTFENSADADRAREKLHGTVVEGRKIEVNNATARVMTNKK
Oligonucleotide	RBNS enrichment (R)
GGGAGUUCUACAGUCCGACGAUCAUACCCACCCCAGGGUAACGGGGCUGGCCUGGCAUUAGUCAUUAUUUAGUUUCCAGGCCAACCAUCCAGAUAGAGAUUCCCUCUUUCCUUUGAGCAGUGCUCUCAAGAGCUGGAAUUCUCGGGUGCCAA	0.248
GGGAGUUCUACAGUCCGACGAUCUUAGUGUUUUGACUUUUCUUACCCAGCGUUAAUUGAAUUCUUGCUUUUAGACAACUUCCUUUUUGUAGUGGUGAACCUUGCCCUUUAGUACAGUUCAAGUGAAUCUGGAUUGGAAUUCUCGGGUGCCAA	0.394
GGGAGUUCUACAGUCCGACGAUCGACCCUCUCCCUAAGGUUGGAUCAGGGAACUGGGUAAGACCUGCAGAAGGUUUCUCUGAGUCACUCACCAGGCCCUACAAGUCCGCUUUCUUGCAGGCUGCCUCUUUUAUUGGAAUUCUCGGGUGCCAA	0.406
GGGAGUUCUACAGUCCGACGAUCAGCAGAGAUGCACAAUAAGCAUUUGUCCAUUUGCUCUUUCCUCAACAGAGGAGAUUAGGAUUUCAAAGAACAAAGAACUGCCCAGUUUCUAUUGGGCUCUUAGACACAGAUGGAAUUCUCGGGUGCCAA	0.341
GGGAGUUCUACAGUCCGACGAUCCAUCCCAAAGGACAGCCGCCUGGAGAUGACUUGAGGCCUUACUUAAACCCAGCUCCCUUCUUCCCUAGCCUGGUGCUUCUCCUCUCCUAGCCCCUGUCAUGGUGUCCAGAUGGAAUUCUCGGGUGCCAA	0.593
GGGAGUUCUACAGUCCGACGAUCUGUAGUUUUUAUUAUGUAGUGACUUUUCAGAAUAAAAGCAGCUGAUGUGACUGACUGCAUCCGACUCGAGGCUGCCUGCUUACCAGGUGCAACUAUCUGCCAAAUGGUGGUGGAAUUCUCGGGUGCCAA	0.476
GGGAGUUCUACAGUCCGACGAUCAUUCUAUUAAGAUACAAUAGCUAAAGUUGGGGAAUAACUUCAGGUAAAAACUGCAAGUCUUGAAGAUUUUUGGCAUUCUUUUAAGUAUUUAAACUUAAUCUUUAUAGCUGUGGAAUUCUCGGGUGCCAA	0.397
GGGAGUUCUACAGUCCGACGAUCACUUCAUAUUGAGAAUAGAAGACGUAGAAAUCAGAUGGAUUUCCAAAGUGGCCAAACUUUUCAACUGUAAUUUUAUAAAUGAUACUACACUGAUAUAGCCAAUUAGAUUUUGGAAUUCUCGGGUGCCAA	0.35
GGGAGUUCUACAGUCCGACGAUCAUAACCUGGGUGGGCUUUUGGAAAAUCUUUGAGAAGUUGAUUUCAUAGGCUGUAGAACAGUAAAGUGGGAACUGGGCGGACUUUUCUAACAGUCGUACUUUUAUAAAGCGUGGAAUUCUCGGGUGCCAA	0.615
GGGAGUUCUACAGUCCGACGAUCAGCACUUUACAAAUGGCUCCAUGUCAUUCAUCCCAGGGGCCAUAAUCUCUUGCACCACCUAUUCUUACUUCCUGUUCAGCUCCUUUACAGCUUUUAUUUUCAACUGCUUCUGGAAUUCUCGGGUGCCAA	1.56
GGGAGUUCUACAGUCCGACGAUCUGGAUGGGGUCAAGAGGCCAGGCCUGGCACAUUUUGGAGUGUCCUGGCUACCAGCUCUCACCUACACCCACGCACCCCCCCACACACUAUGCUCUCUCAAGAAUGUAAUUUGGAAUUCUCGGGUGCCAA	0.514
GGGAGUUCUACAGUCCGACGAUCCCCUUGCUUUAGGCUGUAUAUAGCCCCCCCCAACCCCCCAGCACAGAUCCCUGCCCAUGCUGUUCCCCUUAGCAGCCUGCCUGUUCAUAGAGCGUUUCCCCUCUUGCUAAUGGAAUUCUCGGGUGCCAA	1.66

Sample 5 — method: RNAcompete; molecule type: RNA; matrix: in vitro; concentration: 20 nM; notes: 7-mer, probes averaged, single round; baseline: mean of 7-mers; direction: higher = stronger binding
Target: PABPC1L2, full length, GST fusion (mouse, UniProt A0ABA7IW68)
Oligonucleotide	7-mer Z-score
AUACGUU	-0.213
AUCGUUG	-0.199
UGUGGCU	-0.171
GACGUUG	-0.208
UUGGUCU	-0.421
UAGCAUA	-0.0228
UUCAGCU	-0.277
AAAAUAA	4.28
UAAUAUA	0.0696
AACGGUC	0.017
UAACGAC	0.0533
GCUCCGG	-0.222
AUCCGGU	-0.188
CCUCUAU	-0.208
UCACACG	-0.168
UCCACUU	-0.291
UAUACGG	-0.0826
CGACGAA	0.095
GAGGAAU	0.108
CGUAAGC	-0.393
UUCGCCG	-0.398
GUACGGU	-0.0355
UUCUACC	-0.197
CUAGUCU	-0.325
CAGGCCU	-0.0989

Repeated from above (sample 2):
Oligonucleotide	E-score
GGCCCCAA	0.0509
GCATCACA	0.117
AAGCACCC	0.0977
AGGAAGCC	-0.00081
CCCTTACG	-0.153
AGGGAAGC	-0.175
AAGCCTAG	-0.0023
ATGAAGCA	-0.0468
CCGCGACC	0.294
